Assay results collected from several papers.
Every numbered part comes from another study and shows a few of its results, in no order. Substitutions count along the parent as printed.

Set 1
Target: Ras GTPase-activating protein-binding protein 1, RRM domain (G3BP1, Homo sapiens, UniProt Q13283)
UniProt Q13283, sequence (whole entry, looked up): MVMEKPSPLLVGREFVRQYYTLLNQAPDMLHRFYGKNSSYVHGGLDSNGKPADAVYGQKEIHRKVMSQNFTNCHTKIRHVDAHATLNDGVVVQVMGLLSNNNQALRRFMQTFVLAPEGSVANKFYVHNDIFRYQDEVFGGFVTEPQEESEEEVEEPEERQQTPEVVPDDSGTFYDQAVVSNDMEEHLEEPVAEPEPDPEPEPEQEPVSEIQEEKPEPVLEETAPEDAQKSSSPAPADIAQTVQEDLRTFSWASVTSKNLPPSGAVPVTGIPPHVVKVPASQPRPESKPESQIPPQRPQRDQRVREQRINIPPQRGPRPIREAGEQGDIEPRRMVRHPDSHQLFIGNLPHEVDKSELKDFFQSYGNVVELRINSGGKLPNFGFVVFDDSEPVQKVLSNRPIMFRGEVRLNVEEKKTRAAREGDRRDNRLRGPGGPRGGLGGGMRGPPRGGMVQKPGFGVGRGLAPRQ
Technique: RNA Bind-n-Seq
Form: RNA
Sample: in vitro
Concentration: 1 µM
Notes: whole 134-nt RNA, ends assumed
With: 150 mM KCl
Relative to: input library
Direction: higher = stronger binding
Endpoint: log2 enrichment
Constant ends, left off below: GGGAGUUCUACAGUCCGACGAUC … UGGAAUUCUCGGGUGUCAAGG
Strand = ACCAUGCAGGUGGGCAUCUUUGGGAAGUGGGGCAAGGGGGGGAUAGGGGGGGGGGUAACACUUUGGGAACAGGUGGUCCCAGGUCGUUUC; value = 1.1
Strand = GUCCUGUGCUACACAUCGUAUGUACCGAAUCGGGGUUUGGGGAAAAAGGGGUUUGGGGAAAGUAUUAUGUUACGCCGUUCGGAUCUGCAC; value = 1.67
Strand = CAAGUCCUGUGCUACACAUCGUAUGUACCGAAUCGGGAGGGAAAGGGAAAAAGGGAAAGUAUUAUGUUACGCCGUUCGGAUCUGCACUUC; value = 0.916
Strand = AGUCCUGUGCUACACAUCGUAUGUACCGAAUCGUGUGUGUGUGUGUGUGUGUGUGUGAAAGUAUUAUGUUACGCCGUUCGGAUCUGCACU; value = 0.156
Strand = CCUCAAGUCCUGUGCUACACAUCGUAUGUACCGAAUCGGAGGUUUGGAAAGGAAAGUAUUAUGUUACGCCGUUCGGAUCUGCACUUCCAG; value = -0.247
Strand = GUCCUGUGCUACACAUCGUAUGUACCGAAUCGGGGUUUUUGGGGUGGGGUUUUUGGGGAAAGUAUUAUGUUACGCCGUUCGGAUCUGCAC; value = 0.911
Strand = CUCAAGUCCUGUGCUACACAUCGUAUGUACCGAAUCGGGAAGGGAAGGGGAAGGAAAGUAUUAUGUUACGCCGUUCGGAUCUGCACUUCC; value = -0.195
Strand = UGCUGUUAUCUGGAACUCCUACCUGUCCUGGAAGGCACAUCGGCUCUAAGCCUGCCUCACUCCAUCGUUUCCACCUUGCAGUGAUGCAGC; value = -0.284
Strand = AAGUCCUGUGCUACACAUCGUAUGUACCGAAUCGGGGUUUGGGGUUUGGUUUGGGGAAAGUAUUAUGUUACGCCGUUCGGAUCUGCACUU; value = -0.302

Set 2
Target: RNA binding protein fox-1 homolog 2, RRM domain, GST-SBP tag (RBFOX2, Homo sapiens, UniProt O43251-10, residues 100-194)
Technique: RNA Bind-n-Seq
Form: RNA
Sample: in vitro
Concentration: 365 nM
Notes: natural RNA segment, single round, ends assumed
Relative to: no-protein control
Direction: higher = stronger binding
Endpoint: RBNS enrichment (R)
Constant ends, left off below: GGGAGUUCUACAGUCCGACGAUC … UGGAAUUCUCGGGUGCCAA
Strand = UUUCCAGCUGCAGGUUUGUUAGAGUCUGUUCUACAUGGGCCUGCCCUCCUGUGAUGGGCAGAGGCUCCUGGUACAUCGAGAAGAUUCCUGUGGAUCCCGUCAGGAGGGAC; value = 0.436
Strand = AACAAGGUUUGAGGAGGAAGUAGUUGCCUGUCCCAGCCUCAUCUGCUGAGCUCUUUAAGGAAGGUGGUGCAGAAAGCCGUGCUGUGCUUUCCCUGUGUGGUCUGCCCUCC; value = 1.65
Strand = CAGAGGAGGGUGGCUCUGUUUCCCAAGGCAAAGUUGAGACCAAUGGGCUGUCGGACUGAAGCCCCCUGAACAAGGGAUGAGGUACCAGGGAGAGCUUCCUCGCUGGACGG; value = 0.396
Strand = CCAAUGCCUGUGGAGAGUCUACAGGCCUAAGUGGCGGCCAUCUCAGUAAAGAUAUGGGCCAAGGAUAGUUUUUGUACCUGGGGCCUAUACCCAAUAACAAAAUCUGCCGG; value = 1.89
Strand = UUUAACCACAUUUCUGAAUGUAUAAAAAUACCAAUUAUUUUCCUACAGCCCUUUGUACUUCAAAAUAUGUUUUUGUGUCCAUCAGUAUUAACUAUUGGUAUACUACUGGU; value = 0.784
Strand = CCCCACUUUAGGGUUCUCAAAUACUUUGGACAUCUCUUUCCUUAGAGCCAGGUAGAUGUCUUACAGGUGAACUCGAUGAUGUGGAAAAGAACAAAAAAAGGGAGGUGAGG; value = 0.503
Strand = GCCUGAGUUGUAAAUCCAAAACAUAUUUUUGUUGGCUUGGGACGUUAGGGGCUUGGGGUUUUCCUGAGGCAAGAGGUCAUGGCUGAAUGGGCCUGUGCCGUGAAUUGAAU; value = 1.84
Strand = GGAUGGAAAUCUGCCUUUCGUGGGACCAAACAGGACUCCUUGGACGAUUAGUUCAGGUUGGGUUUGGUUUUCUUCUUAAAGAGUUUAGUUUUCCUCUCCAGAGGGAUCAG; value = 0.366

Set 3
Target: Interferon regulatory factor 7, full length, phosphomimetic (IRF7, Homo sapiens, UniProt Q92985, residues 1-503, S101K/S471D/S472D/S475D/S476D/S477D/S483D/S484D/S487D)
Technique: protein-binding microarray
Form: double-stranded DNA, one strand shown
Sample: in vitro
Concentration: 250 nM
Notes: 60-bp whole probe
With: salmon DNA 0.4 mg/ml
Relative to: random background probes
Direction: higher = stronger binding
Endpoint: log fluorescence
Constant ends, left off below: GCCTAGCAC … GTCTTGATTCGCTTGACGCTGCTG
Target sequence (chain): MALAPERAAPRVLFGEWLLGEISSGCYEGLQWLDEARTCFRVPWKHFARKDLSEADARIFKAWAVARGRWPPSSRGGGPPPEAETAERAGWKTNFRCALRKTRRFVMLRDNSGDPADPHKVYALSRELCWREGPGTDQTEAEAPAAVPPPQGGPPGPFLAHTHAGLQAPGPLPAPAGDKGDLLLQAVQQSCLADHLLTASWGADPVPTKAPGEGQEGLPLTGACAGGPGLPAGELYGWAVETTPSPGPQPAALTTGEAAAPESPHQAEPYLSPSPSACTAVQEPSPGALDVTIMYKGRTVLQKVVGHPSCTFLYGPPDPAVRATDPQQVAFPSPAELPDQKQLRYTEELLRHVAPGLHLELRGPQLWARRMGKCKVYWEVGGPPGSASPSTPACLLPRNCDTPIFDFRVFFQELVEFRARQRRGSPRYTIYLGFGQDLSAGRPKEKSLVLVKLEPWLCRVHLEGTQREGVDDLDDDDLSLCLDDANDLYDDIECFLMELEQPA
Strand = TCATATGTCTGTTTTTGACTGTGCTAG; value = 0.349 z-score
Strand = GCCGATTCCAGTTTCGAGACGTGCTAG; value = 4.82 z-score
Strand = TTAGGACTGCTAATGCTTTAGTGCTAG; value = -0.481 z-score
Strand = TTTTCATTTTCTTTAACTCAGTGCTAG; value = 3.17 z-score
Strand = TTAGGTCTGGACTTTCGGTTAGTGCTA; value = 0.562 z-score
Strand = TCAGCTTTTTTTCCGAGACTGTGCTAG; value = 0.398 z-score
Strand = TTAGATACCAGTATCGATTAGTGCTAG; value = 1.24 z-score
Strand = GACGATATCAGTCTCGATACGTGCTAG; value = 0.735 z-score
Strand = TCTTTTCTGTTGTCTGTGTTTGTGCTA; value = 2.85 z-score
Strand = GACGGTCTCGGTATCGGGCCGTGCTAG; value = 1.34 z-score
Strand = TTTGGACTGGGTTTCGGTTAGTGCTAG; value = 6.63 z-score
Strand = TGTGAAACCTTCAGGCACGTGTGCTAG; value = -0.49 z-score
Strand = GACGGTTTCGGTGCCGGGACGTGCTAG; value = 3.2 z-score
Strand = TTAGGACTGGTTCTCGGTTAGTGCTAG; value = 1.42 z-score
Strand = CAGAGTCTAGCCATTGTGGGTGTGCTA; value = -0.873 z-score
Strand = TCATACATGCATATAGTACTGTGCTAG; value = 0.169 z-score
Strand = TTACGACTGGGGTTTCGGTTAGTGCTA; value = 4.97 z-score
Strand = GTGTGTCTGATTATTTACATGTGCTAG; value = -0.0794 z-score
Strand = TTAGAGTTCGGGTATCGATTAGTGCTA; value = 0.543 z-score

Set 4
Target: CCNE1, cyclin fold, Cln2 fusion (human)
Technique: yeast growth competition, sequencing
Sample: yeast
Notes: weak parent motif
Relative to: not given
Direction: higher = stronger binding
Endpoint: normalised enrichment score
Starting sequence: WEE1 docking peptide (human); HKTFRKLRLFDTP
Substitution = HKTFRKLRFFDTP [L9F]; value = 0.603
Substitution = HKTFAKLRLFDTP [R5A]; value = -1.1
Substitution = HHTFRKLRLFDTP [K2H]; value = 0.251
Substitution = HKTFRKLRLFDTL [P13L]; value = 0.33
Substitution = HITFRKLRLFDTP [K2I]; value = 0.458
Substitution = HKTFRKHRLFDTP [L7H]; value = -0.455
Substitution = HKTFRKLRLFDTF [P13F]; value = 0.579
Substitution = SKTFRKLRLFDTP [H1S]; value = 1.21
Substitution = HPTFRKLRLFDTP [K2P]; value = 0.563
Substitution = HKTFRKLRLFDMP [T12M]; value = 1.31
Substitution = HKTFRKLRLFDTI [P13I]; value = 0.102
Substitution = FKTFRKLRLFDTP [H1F]; value = -0.22
Substitution = HKTNRKLRLFDTP [F4N]; value = 0.452
Substitution = HKTGRKLRLFDTP [F4G]; value = 1.45
Substitution = HKTFRKIRLFDTP [L7I]; value = 1.21
Substitution = HKTFRKLRLEDTP [F10E]; value = 0.357
Substitution = QKTFRKLRLFDTP [H1Q]; value = 1.03
Substitution = PKTFRKLRLFDTP [H1P]; value = 0.736
Substitution = HKLFRKLRLFDTP [T3L]; value = 0.906
Substitution = HETFRKLRLFDTP [K2E]; value = 0.674
Substitution = HKTFRKLRLKDTP [F10K]; value = -0.485
Substitution = HYTFRKLRLFDTP [K2Y]; value = -0.0251
Substitution = HKTFRPLRLFDTP [K6P]; value = 0.712
Substitution = HCTFRKLRLFDTP [K2C]; value = 0.727

Mixed results
Molecule = PhoQ, residues 284 288 289 292 302 303 MLMVEA; target = PhoP, residues 12 14 15 18 19 LHATL (Escherichia coli, UniProt P23836); test = Sort-seq, refers to: YFP reporter; system = E. coli; setting = PhoQ-PhoP variant library, with: 10 µM Mg2+; scale = relative to: high Mg2+ state, higher = stronger signaling; endpoint = fold induction; value = 4.29
